Experimental data pooled from the literature.
Organism: Escherichia coli

With `NC[C@@H](NC[C@@H]1CCCN1C[C@@H](CO)NC[C@@H](NCCC12CC3CC(CC(C3)C1)C2)c1ccccc1)c1ccccc1` the IC90 was 15.2 µM (bacterial growth; compound alone).
For `C[C@H](CS)C(=O)N[C@H](Cc1c[nH]c2ccccc12)C(=O)O`, “MIC of meropenem” read 0.25 mg/L (VIM-1 producing; 50 µM, added: meropenem).
For `CC(C)Oc1c(NC(=O)c2ccc(NC(=O)[C@H](CC(N)=O)NC(=O)c3cc(F)c(/N=N/c4c(Cl)cc(C#N)cc4Cl)c(F)c3)cc2)ccc(C(=O)N/N=C/c2c(F)cc(C(=O)O)cc2F)c1O`, the MIC was greater than 6.4 mg/L (BW25113; after 1 h irradiation at 450 nm).
`O=C(O)c1ccc(-c2cccc(C(=O)O)c2)cc1`: “MIC of ampicillin” 512 mg/L (bacterial growth, broth microdilution; expressing OXA-48; 4 µg/mL, added: ampicillin; MIC of ampicillin).
`CC(CCN[C@H](CN[C@H](CO)CN1CCC[C@H]1CN[C@H](CN)c1ccccc1)c1ccccc1)c1ccccc1` (stereo partly drawn) — result for “potentiation of amikacin”: 3.5 fold (bacterial growth; 16 µM, fold shift of IC50, added: amikacin).
For `O=S(=O)(O)c1ccc(-c2ccc(S(=O)(=O)O)cc2)cc1`, “MIC of ampicillin” read 128 mg/L (bacterial growth, broth microdilution; expressing OXA-48; 64 µg/mL, added: ampicillin; MIC of ampicillin).
`NC[C@H]1OB(O)c2ccccc21` gave an MIC of 3.1 µM (broth microdilution; ATCC 25922 wild type, M9 medium).
`Nc1cc(S(=O)(=O)O)cc2cc(S(=O)(=O)O)cc(O)c12` — result for “MIC of ampicillin”: 512 mg/L (bacterial growth, broth microdilution; expressing OXA-48; 32 µg/mL, added: ampicillin; MIC of ampicillin).
For `NC[C@@H](NC[C@@H]1CCCN1C[C@@H](CO)NC[C@@H](NCCc1ccc(-c2ccccc2)cc1)c1ccccc1)c1ccccc1`, “potentiation of amikacin” read 1 fold (bacterial growth; 8 µM, fold shift of IC50, added: amikacin).

For quick reference, copied from above:
`NC[C@H]1OB(O)c2ccccc21` gave an MIC of 3.1 µM (broth microdilution; ATCC 25922 wild type, M9 medium).
